{"data": "Measured values collected from several papers", "note": "Each numbered part is a random draw from the data of one study; scales do not carry over between parts. Changes are numbered by the printed parent chain.", "UniProt Q01959, sequence (whole entry, looked up)": "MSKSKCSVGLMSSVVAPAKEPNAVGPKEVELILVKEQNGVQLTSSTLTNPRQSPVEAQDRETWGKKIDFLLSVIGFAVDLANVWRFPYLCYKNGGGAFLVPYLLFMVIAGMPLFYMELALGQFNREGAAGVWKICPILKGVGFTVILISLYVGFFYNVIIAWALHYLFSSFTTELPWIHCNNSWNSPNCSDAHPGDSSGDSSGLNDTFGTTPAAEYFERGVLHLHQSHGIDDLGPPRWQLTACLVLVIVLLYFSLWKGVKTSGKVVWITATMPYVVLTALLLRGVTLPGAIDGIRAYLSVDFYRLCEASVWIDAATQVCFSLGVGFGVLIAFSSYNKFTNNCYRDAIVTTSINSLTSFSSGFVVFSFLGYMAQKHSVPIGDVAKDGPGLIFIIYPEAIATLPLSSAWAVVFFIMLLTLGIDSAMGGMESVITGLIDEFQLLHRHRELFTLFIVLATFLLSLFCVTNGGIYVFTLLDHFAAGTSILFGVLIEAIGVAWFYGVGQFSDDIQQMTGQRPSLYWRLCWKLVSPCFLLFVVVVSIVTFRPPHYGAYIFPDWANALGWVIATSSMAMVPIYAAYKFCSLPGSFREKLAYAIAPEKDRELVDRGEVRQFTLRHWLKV"}
{"data": "Set 1", "target": "UDP-N-acetylglucosamine--peptide N-acetylglucosaminyltransferase 110 kDa subunit (OGT, Homo sapiens, UniProt O15294)", "effect on": "binding", "technique": "phage display NGS", "molecule type": "peptide", "tested at": "concentration not given", "setting": "panning round 2", "reference": "input library", "UniProt O15294, sequence (whole entry, looked up)": "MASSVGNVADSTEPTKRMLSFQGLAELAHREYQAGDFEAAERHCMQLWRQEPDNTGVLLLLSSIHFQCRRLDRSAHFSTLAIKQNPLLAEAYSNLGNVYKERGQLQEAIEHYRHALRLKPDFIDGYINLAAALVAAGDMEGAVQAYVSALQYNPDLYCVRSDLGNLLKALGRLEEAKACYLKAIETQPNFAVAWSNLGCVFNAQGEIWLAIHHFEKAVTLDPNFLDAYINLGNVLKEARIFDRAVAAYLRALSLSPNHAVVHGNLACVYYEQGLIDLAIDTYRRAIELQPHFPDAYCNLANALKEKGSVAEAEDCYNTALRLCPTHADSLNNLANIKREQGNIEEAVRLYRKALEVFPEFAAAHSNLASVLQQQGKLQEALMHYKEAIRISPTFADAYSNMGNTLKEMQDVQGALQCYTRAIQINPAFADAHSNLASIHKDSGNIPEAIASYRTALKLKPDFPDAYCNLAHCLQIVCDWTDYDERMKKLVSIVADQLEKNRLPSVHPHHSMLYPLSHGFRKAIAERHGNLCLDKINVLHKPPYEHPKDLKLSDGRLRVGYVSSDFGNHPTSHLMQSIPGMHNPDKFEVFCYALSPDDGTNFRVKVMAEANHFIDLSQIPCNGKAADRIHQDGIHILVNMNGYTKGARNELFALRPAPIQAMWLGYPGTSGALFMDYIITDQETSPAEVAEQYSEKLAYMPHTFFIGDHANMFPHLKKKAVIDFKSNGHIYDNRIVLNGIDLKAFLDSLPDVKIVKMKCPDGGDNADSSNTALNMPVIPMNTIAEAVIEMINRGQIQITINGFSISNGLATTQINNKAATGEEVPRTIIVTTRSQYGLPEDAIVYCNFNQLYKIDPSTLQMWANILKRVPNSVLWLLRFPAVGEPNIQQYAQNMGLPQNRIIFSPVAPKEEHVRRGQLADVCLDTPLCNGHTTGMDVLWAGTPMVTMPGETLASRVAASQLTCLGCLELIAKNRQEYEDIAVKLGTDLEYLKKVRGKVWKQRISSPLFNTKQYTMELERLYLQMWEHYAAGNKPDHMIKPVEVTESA"}
{"Sequence": "GGNEEFKPFYQIFMP", "enrichment fold change": 5.31}
{"Sequence": "QPIDWLHVHRNYHH", "enrichment fold change": 6.19}
{"Sequence": "DLTHEHQIHHHYNRD", "enrichment fold change": 5.05}
{"Sequence": "HYYQHPPIGDHHMAI", "enrichment fold change": 3.83}
{"Sequence": "TYKNDRYLPFYPIII", "enrichment fold change": 13.5}
{"Sequence": "HWTSHYQHMPVHGDH", "enrichment fold change": 7.06}
{"Sequence": "QDTTFAPFYQIIAPP", "enrichment fold change": 9.53}
{"Sequence": "ESHQYSFKPMYQIVI", "enrichment fold change": 23}
{"data": "Set 2", "target": "tungstate, free oxyanion", "technique": "microfluidic competitive inhibition", "sample": "in vitro, cell-free expressed", "tested at": "not given", "setting": "derived from inhibition constants, unchanged parent 2230 nM", "reading": "lower = stronger binding", "starting sequence": "PafA, mature enzyme, eGFP fusion (Elizabethkingia meningoseptica, UniProt Q9KJX5); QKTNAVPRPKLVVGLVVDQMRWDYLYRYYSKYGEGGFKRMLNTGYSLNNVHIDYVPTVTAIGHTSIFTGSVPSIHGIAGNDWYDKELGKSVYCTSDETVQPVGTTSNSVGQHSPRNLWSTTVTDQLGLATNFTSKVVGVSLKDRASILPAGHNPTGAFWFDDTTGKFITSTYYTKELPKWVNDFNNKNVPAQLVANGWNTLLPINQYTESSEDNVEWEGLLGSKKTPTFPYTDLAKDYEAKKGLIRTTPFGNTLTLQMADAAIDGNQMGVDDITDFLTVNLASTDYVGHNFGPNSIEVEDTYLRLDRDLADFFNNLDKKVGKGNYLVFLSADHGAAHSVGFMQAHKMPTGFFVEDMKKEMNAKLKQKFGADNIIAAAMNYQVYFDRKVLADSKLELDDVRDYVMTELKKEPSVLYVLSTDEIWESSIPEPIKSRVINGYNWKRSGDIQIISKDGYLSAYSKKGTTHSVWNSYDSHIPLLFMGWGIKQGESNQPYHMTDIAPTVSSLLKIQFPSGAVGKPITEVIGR"}
{"Variant": "S134V", "oxyanion analog dissociation constant": "1910 nM"}
{"Variant": "H345V", "oxyanion analog dissociation constant": "2160 nM"}
{"Variant": "Q343V", "oxyanion analog dissociation constant": "2140 nM"}
{"Variant": "P9V", "oxyanion analog dissociation constant": "2020 nM"}
{"Variant": "T163V", "oxyanion analog dissociation constant": "1720 nM"}
{"Variant": "V55A", "oxyanion analog dissociation constant": "2400 nM"}
{"Variant": "V194G", "oxyanion analog dissociation constant": "1600 nM"}
{"Variant": "P411V", "oxyanion analog dissociation constant": "2590 nM"}
{"data": "Set 3", "target": "CCNB1, cyclin fold, Cln2 fusion (human)", "technique": "yeast growth competition, sequencing", "sample": "yeast", "setting": "strong parent motif", "reference": "not given", "reading": "higher = stronger binding", "starting sequence": "viral docking peptide; YKVKRRLVFGADD; partner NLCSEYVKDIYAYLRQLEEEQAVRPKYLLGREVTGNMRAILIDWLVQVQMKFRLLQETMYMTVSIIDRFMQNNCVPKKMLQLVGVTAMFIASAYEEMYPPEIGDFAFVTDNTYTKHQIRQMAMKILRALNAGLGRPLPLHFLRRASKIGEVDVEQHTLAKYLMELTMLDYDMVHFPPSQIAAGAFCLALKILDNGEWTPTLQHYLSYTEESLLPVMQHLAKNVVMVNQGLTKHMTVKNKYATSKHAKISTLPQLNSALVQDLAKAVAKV"}
{"Variant": "YKVKRYLVFGADD [R6Y]", "normalised enrichment score": 0.356}
{"Variant": "YKVKRRLHFGADD [V8H]", "normalised enrichment score": 3.29}
{"Variant": "YKVKRRLVFGAQD [D12Q]", "normalised enrichment score": 2.4}
{"Variant": "YKVKRRLTFGADD [V8T]", "normalised enrichment score": 4.85}
{"Variant": "YKVKRRLVIGADD [F9I]", "normalised enrichment score": 0.797}
{"Variant": "YKVKRRLVFLADD [G10L]", "normalised enrichment score": 2.82}
{"Variant": "YFVKRRLVFGADD [K2F]", "normalised enrichment score": 2.98}
{"Variant": "YKVKRRLVFGAVD [D12V]", "normalised enrichment score": 2.47}
{"data": "Mixed results"}
{"SMILES": "CCNC(=O)c1cc2c(N3CCOC[C@@H]3C)ccnc2[nH]1", "target": "Sodium-dependent dopamine transporter (SLC6A3, Homo sapiens, UniProt Q01959)", "test": "ligand displacement, radioligand", "setting": "10 µM", "measurement": "inhibition", "result": "25.5%"}
{"note": "Repeated from above (set 3):"}
{"Variant": "YFVKRRLVFGADD [K2F]", "normalised enrichment score": 2.98}
{"Variant": "YKVKRRLVIGADD [F9I]", "normalised enrichment score": 0.797}
{"Variant": "YKVKRRLHFGADD [V8H]", "normalised enrichment score": 3.29}
{"Variant": "YKVKRRLTFGADD [V8T]", "normalised enrichment score": 4.85}
